# Measured values gathered from unrelated publications.
# Protocols differ between the studies behind these lines. “And” joins repeats or separate records; there may be more than shown. Numbers after ± are the reported error.
Compound,cell line,assay,system,conditions,scale,quantity,result
Nc1ccn([C@@H]2O[C@H](CO)[C@@H](O)C2(F)F)c(=O)n1,primary human fibroblasts uninfected,live/dead staining,,48 h,,CC50,> 60 µM
Cc1cc(C(=O)NC(C)(C)COc2cccc3c2C(N)=NS(=O)(=O)N3)cc(C)n1,human peripheral blood lymphocytes,"CBPI, preliminary test",,"20 µg/mL, 24 h",reference: vehicle control,cytotoxicity,0%
CCCc1nc2c(C)cc(-c3nc4ccccc4n3C)cc2n1Cc1ccc(-c2ccccc2C(=O)O)cc1,MDCK low-efflux cells,passive permeability,,apical to basolateral,,Papp,39.9 ×10⁻⁶ cm/s
COc1cc(O)c2nc(C)ccc2c1,RRCK low-efflux MDCK-II cells,,,"1.5 h, 37 °C, apical to basal",,Papp,0.44 ×10⁻⁶ cm/s
C[C@H](NC(=O)[C@]1(Cc2ccccc2)CCN1C(=O)Oc1ccccc1)C(N)=O,HEL,cell morphology,,,,minimum cytotoxic concentration,> 100 µM
CN1CCc2c(c3ccccc3n2Cc2ccc(C(=O)NO)cc2)C1,NDHF fibroblasts,MTS,,120 h,,CC50,30 µM
CCOc1cc(CC(=O)N[C@@H](CC(C)C)c2ccccc2N2CCCCC2)ccc1C(=O)O,MDCK low-efflux cells,passive permeability,,apical to basolateral,,Papp,27.8 ×10⁻⁶ cm/s
COc1ccccc1OCC(O)CN1CCN(CC(=O)Nc2c(C)cccc2C)CC1 (stereo not shown),hiPSC-derived cardiomyocytes,beat period,,"30 min, coupled state",,highest concentration without effect,50 µM
O=C(O[C@@H]1COC(=O)c2cc(O)c(O)c(O)c2-c2c(cc(O)c(O)c2O)C(=O)O[C@H]1[C@@H]1OC(=O)c2cc(O)c(O)c(O)c2-c2c(O)c(O)c(O)c3c2C(=O)O[C@H]1[C@@H]3O)c1cc(O)c(O)c(O)c1,RPE cells,cytotoxicity,,48 h,,IC50,> 100 µg/mL
Cc1cn([C@H]2C[C@H](F)[C@@H](CO)O2)c(=O)[nH]c1=O,HEL,,,,,minimum cytotoxic concentration,> 250 µM
CCCCCCCCN=c1ccn(CCCCCCCCCCn2ccc(=NCCCCCCCC)cc2)cc1,red blood cells,hemolysis,,,,lysis20,8 µM
O=C(Nc1ccc([N+](=O)[O-])cc1Cl)c1cc(Cl)ccc1O,primary human fibroblasts uninfected,live/dead staining,,"48 h, capped at 10.00 µM",,CC50,> 10 µM
Cc1cn([C@H]2C[C@H](N=[N+]=[N-])[C@@H](CO)O2)c(=O)[nH]c1=O,"Cells, MOLT-4 and HUVEC",HPLC-MS/MS,"RPMI-1640, 10% FBS","100 µM, time course",,extracellular concentration change,< 10%
Cc1cccc(C)c1N(CC(=O)Nc1ccc(-c2ncon2)cc1)C(=O)C1CCS(=O)(=O)CC1,primary human keratinocytes,,,20 h,,CC50,> 10 µM
O=C(O)/C=C/c1ccccc1,LS174T,MTT,,"3.1 to 50 µg/mL, 48 h, 10% FBS",,viability,> 90%
Cc1cc(Nc2ccc(S(F)(F)(F)(F)F)cc2)n2nc(C(C)(F)F)nc2n1,EL4,,culture medium,"20 µM, 48 h",,free drug concentration,2.4 µM
CC1(C)CCC(c2ccc(Cl)cc2)=C(CN2CCN(c3ccc(C(=O)NS(=O)(=O)c4ccc(N[C@H](CCN5CCOCC5)CSc5ccccc5)c(S(=O)(=O)C(F)(F)F)c4)cc3)CC2)C1,mouse ileal enteroid monolayers,,,"50 % saturated solubility, 2 h, basolateral fractions 1-10, added: oleic acid/monoolein micelles",,drug secreted with TRL,15 ± 3.9%
C[n+]1cc2c3c(ccc2c2ccc4cc5c(cc4c21)OCO5)OCO3,THP-1 PMA-differentiated macrophages,CellTiter-Glo,,"72 h, host cell cytotoxicity",,CC50,4.34 µM
CCOC(=O)c1c(C)nc(NCCCNc2ccnc3cc(Cl)ccc23)nc1C,HEL,cell morphology,,,,minimum cytotoxic concentration,100 µM
O[C@H]1[C@H](OCc2cn(Cc3ccc(F)cc3)nn2)O[C@H]2[C@@H]1OC[C@H]2O,HCT-116,"cytotoxicity, CellTiter-Glo",,"up to 30 µM, 72 h",,viability,not toxic
Cc1ncc2c(c1O)COC2c1ccc(Cl)cc1 (stereo not shown),MDCK low-efflux cells,passive permeability,,apical to basolateral,,Papp,39.9 ×10⁻⁶ cm/s
O=C(C[C@@H](C(F)F)n1ccc(F)n1)N1CCC(O)(Cn2cnc3c(cnn3-c3ccc(F)cc3)c2=O)CC1,CHP-212 parental,SRB,,"27.43 nM, 5 d",reference: untreated,viability,96.7% and 50% and 72%

# A few entries again:
Compound,cell line,assay,system,conditions,scale,quantity,result
CCCc1nc2c(C)cc(-c3nc4ccccc4n3C)cc2n1Cc1ccc(-c2ccccc2C(=O)O)cc1,MDCK low-efflux cells,passive permeability,,apical to basolateral,,Papp,39.9 ×10⁻⁶ cm/s
COc1cc(O)c2nc(C)ccc2c1,RRCK low-efflux MDCK-II cells,,,"1.5 h, 37 °C, apical to basal",,Papp,0.44 ×10⁻⁶ cm/s
